Results from different studies.
Every numbered part comes from another study and shows a few of its results, in no order.

Block 1
Target: Phosphate system positive regulatory protein PHO4, full length, GST-tagged (PHO4, Saccharomyces cerevisiae, UniProt P07270, residues 1-312)
Technique: competition protein-binding microarray
Form: double-stranded DNA, one strand shown
Matrix: in vitro
Tested at: 2 µM
Setting: whole 60-bp probe, lowest competitor level
Together with: Cbf1 competitor, 0.05 µM
Direction: higher = stronger binding
Target sequence (chain): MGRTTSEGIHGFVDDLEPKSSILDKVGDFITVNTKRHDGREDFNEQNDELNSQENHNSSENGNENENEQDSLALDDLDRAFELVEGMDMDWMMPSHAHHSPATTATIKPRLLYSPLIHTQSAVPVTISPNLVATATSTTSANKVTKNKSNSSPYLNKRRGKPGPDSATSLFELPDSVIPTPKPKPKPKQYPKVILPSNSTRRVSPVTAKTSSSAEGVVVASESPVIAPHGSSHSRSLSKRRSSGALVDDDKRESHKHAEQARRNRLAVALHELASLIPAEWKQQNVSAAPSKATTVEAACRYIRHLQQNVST
Sequence | fluorescence intensity [a.u.]
CTTCTGTAAATTTGCCTAGTGGGTGGACGCGCCCCGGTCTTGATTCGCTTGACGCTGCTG | 4880
ATTCCTGAAGAATCCAAAGGATCTTTTAAGTATATAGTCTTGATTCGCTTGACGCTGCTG | 2460
TAAACCAAGTAAATGACGATGGGAGAAGCAGTACCCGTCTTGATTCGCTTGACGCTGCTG | 3400
TCAAAAACGGACATTACTTGCCAGACGCGAATGATAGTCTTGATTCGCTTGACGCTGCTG | 3610
ATTAAAGAAAAATTAAACGTGATGGGTCTATCGAGCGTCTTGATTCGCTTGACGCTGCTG | 10900
AATGGAACAGATTAGCACGTGAACGAGAAAGCAACCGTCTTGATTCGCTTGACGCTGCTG | 15600
CTAACGAAGGTTTGTCTAGTGGGTGACAAGCCAAGTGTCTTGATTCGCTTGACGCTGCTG | 3720
CGGAAAGGGCTGGGCCACGTGGGCGGCTGCTGAGTGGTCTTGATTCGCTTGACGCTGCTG | 23000
CGGGGTTAAGTTTGGACGGTGGGTGGCTTGCAGCAGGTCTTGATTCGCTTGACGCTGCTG | 4340
ATGGATTGTCTCTGGCACGTTCCACTGGTGGCTCAGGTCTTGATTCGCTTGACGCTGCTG | 14800
CGTCCTAGTGATTTTCACGTGTGCTCCATGAGGAAGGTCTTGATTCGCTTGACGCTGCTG | 11100
CGTCCTAGTGATTGTCACCCCACTTCCATGAGGAAGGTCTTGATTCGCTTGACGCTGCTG | 4630
GGCCGCTCAAGGGAGCACGTGACCTCGGCCTCTGGCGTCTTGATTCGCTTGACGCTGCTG | 15200
AACTGTTTCAGAACAAACGTGGTCGTCCCAAGAAGTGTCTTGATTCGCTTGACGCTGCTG | 11800
TGTTTACAGCCGAGTCACGGGATATTGGTCTGTGAAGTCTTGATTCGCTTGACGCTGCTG | 4780
TTAATATTTTCGGTGCTCGTGGTGAGGCAGAAGCTGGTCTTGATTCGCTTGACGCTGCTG | 9450
CTAACGAAGGTTTTTCACGTGCAGTACAAGCCAAGTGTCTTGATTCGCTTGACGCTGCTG | 13000
ATCATAACGGAGCGAACCGTGCCGAAGATGTCAAGAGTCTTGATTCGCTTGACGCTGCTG | 9030
AGAACACAGTTTCGGCACGTGGAAGGTGTTTGGGACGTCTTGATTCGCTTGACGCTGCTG | 18500
CATACCCAACCTTGGAACGTGGGTGAAGATATTTGTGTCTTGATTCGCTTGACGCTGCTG | 14300
AAATTACTAAGTTGCCTTGTGGGTGACGCCGTATGAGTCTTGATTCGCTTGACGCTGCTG | 5530
AAAGCGGTAATTTTTCACGTGAGGTCAAATATCTATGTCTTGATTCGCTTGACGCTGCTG | 10800
CGTCCTAGCGATTGATTGGTGGGTGCCATGAGGAAGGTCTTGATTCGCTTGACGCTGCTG | 7080
TCAAACTGAGATCCGGTCATGACAATACTGTCAACAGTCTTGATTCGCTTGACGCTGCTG | 3310

Block 2
Target: RNA binding protein fox-1 homolog 2, RRM domain, GST-SBP tag (RBFOX2, Homo sapiens, UniProt O43251-10, residues 100-194)
Technique: RNA Bind-n-Seq
Form: RNA
Matrix: in vitro
Tested at: 365 nM
Setting: natural RNA segment, single round, ends assumed
Baseline: no-protein control
Direction: higher = stronger binding
Residues (chain): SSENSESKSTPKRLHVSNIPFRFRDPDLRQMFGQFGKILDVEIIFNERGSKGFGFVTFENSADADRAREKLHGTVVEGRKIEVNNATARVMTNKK
Sequence | RBNS enrichment (R)
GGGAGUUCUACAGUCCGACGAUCAGCAUGAUCGGGGACUAAGUUCUCACCCCAGCACUAAAUAAAUAAAACCAAGUCAACAGCCAUCAAGCAGAUAUAUCCCAGGCCGCCCAGGAUGUGUGUCCUCCCUUGUGUGGAAUUCUCGGGUGCCAA | 8.55
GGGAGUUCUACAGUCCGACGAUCUGUGGUUCCUUUAAAUGCCCUUACCUCUCCCAAGAGGUUGUUUUGUUUUGUUUUCCUCCCUUUUCUCUUGAAUUUUAGCAUCCACAUAAAUUAUGCUUCCAACCUUGUAUUGGAAUUCUCGGGUGCCAA | 1.62
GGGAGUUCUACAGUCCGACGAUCAAGAGAUUUUAUGUUUAAAAUGGCAUUUAGCACAGUAUUUAACAUUCUUGGUCACAAAGCUAUUUAAGUGGACUGUAUUUCGGCUAUGUCUCAUGUUUUAUAUGAUUAAAUGGAAUUCUCGGGUGCCAA | 0.718
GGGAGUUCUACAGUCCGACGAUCGGAAGGGACUCUAGGAGGUGGCACUGGCCCCACAGCCUCUGGGAAGUGACAGAGAUGCCUCAGCUCUAGGCUCCUGCCCUUGCUGCUCCCACCUUCCAAGCCAGUUGCAGUGGAAUUCUCGGGUGCCAA | 0.289
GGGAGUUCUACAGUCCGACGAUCAUUUAAUGUCUAUACAGUAAAAUUAUUCAAACUUCAAACCAGUAUUGAAAGCAGUUGGAAACCAGCUAAUAGUUUCUUAAUCUCAGAUUUCGAGAUGAAUGUAAACUGUAUGGAAUUCUCGGGUGCCAA | 0.385
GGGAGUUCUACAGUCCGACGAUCUUUUUUAAAUAAGGGAUAACAUAUUCUUUAUAGAAUAGUGCUUGUUCUGGAAGAGAUUCAGGUGAAAAGUUGGCGUGGCAUGUUUGAGGACUCUGCGGAUCAGUGCUACAUGGAAUUCUCGGGUGCCAA | 0.993
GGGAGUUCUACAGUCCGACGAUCCCAGGGAGGAGCCUGAGCAGCUUCCAUAGCAGAUCCGUUGCCAGUUACCUGGCCUGUAAGCUUCUUACUGAUUGAUUGUCUAAGGCUCCUGUCAGAGCCCACCUAGAAGCUGGAAUUCUCGGGUGCCAA | 0.416
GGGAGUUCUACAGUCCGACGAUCGUGAUGCUUAGGUAAUCUCUGGGAUCCGAUUUUCCCACAUGUCUCACUCCACAGUAUGCUAAAGAAGAAAAAGUGAGUGGGCACAACACUUUGACCCUCUGGCUAAGCCCUGGAAUUCUCGGGUGCCAA | 0.763
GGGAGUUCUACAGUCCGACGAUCCAAUAAUCAUAUCUCUUUUGACAUUUUGGAAAUUUUUUUAAUUUUACAAGUACAUUUAACAGAUCAUUUAUAAAGCAGGAGUCCAUUUUAACACUUACCGACUUUUUUUGUGGAAUUCUCGGGUGCCAA | 0.422
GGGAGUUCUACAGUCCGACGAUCUCUGUGACUGUUGCUGAGUCUCUGUCUCAUGUCGUAGAAUUGUGGAUAAUUGUCUAGUGACCCUCUCAUCACUGUAACCAUCGCGCCUGGCCUAGAUGUCGUGUUUUGGAUGGAAUUCUCGGGUGCCAA | 0.413
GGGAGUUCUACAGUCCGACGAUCUCCCGGUGGUGGGAUCCACGCUGGGCCUAGGAUGGGACGUUUUUCUUCUUGGGCCCGGUCCACAGGUCCAAGGACACCCUCCCUCCAGGGUCCUCUCUUCCACAGUGGCGUGGAAUUCUCGGGUGCCAA | 0.278
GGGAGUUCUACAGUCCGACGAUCGUAGACAAGUAAGGGCUUGAAAAUGAUACUGGCAAGAUACGAUUGGCUCUAGAUCUACAUUCUUCAAAAAAAAAAAUUGGCUUAACUGUUUCAUCUUUAAGUAGCAUUUUUGGAAUUCUCGGGUGCCAA | 0.848

Block 3
Target: Interferon regulatory factor 7, full length, phosphomimetic (IRF7, Homo sapiens, UniProt Q92985, residues 1-503, S471D/S472D/S475D/S476D/S477D/S483D/S484D/S487D)
Sequence of UniProt Q92985 (whole entry, unmodified, looked up): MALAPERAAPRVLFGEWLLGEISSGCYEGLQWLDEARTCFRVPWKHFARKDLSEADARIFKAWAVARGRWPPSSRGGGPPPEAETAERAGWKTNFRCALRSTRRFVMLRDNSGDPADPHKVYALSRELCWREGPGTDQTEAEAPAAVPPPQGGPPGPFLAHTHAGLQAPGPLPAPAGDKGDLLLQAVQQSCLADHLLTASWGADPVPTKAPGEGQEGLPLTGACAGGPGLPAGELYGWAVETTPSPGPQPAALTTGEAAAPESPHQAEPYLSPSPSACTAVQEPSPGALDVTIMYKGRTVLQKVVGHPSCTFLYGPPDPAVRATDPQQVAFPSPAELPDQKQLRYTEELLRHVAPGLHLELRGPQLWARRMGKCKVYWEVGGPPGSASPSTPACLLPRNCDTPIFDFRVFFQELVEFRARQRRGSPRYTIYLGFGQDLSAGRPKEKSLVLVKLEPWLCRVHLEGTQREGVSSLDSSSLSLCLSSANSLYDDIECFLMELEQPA
Technique: protein-binding microarray
Form: double-stranded DNA, one strand shown
Matrix: in vitro
Tested at: 2200 nM top
Setting: 60-bp whole probe
Together with: salmon DNA 0.4 mg/ml
Baseline: random background probes
Direction: higher = stronger binding
Constant ends, left off below: GCCTAGCAC … GTCTTGATTCGCTTGACGCTGCTG
Sequence | fitted relative affinity [z-score]
GACGGACAGCTACTGCTGACGTGCTAG | -0.73
TTAGGTTTCGATTTCGGTTAGTGCTAG | 13.2
TTAGAAATCAGTTTCGATTAGTGCTAG | 5.08
TCACTCCTCCTTCTCTAACTGTGCTAG | 2.71
TTAGATTTCCTTTCCCTTTAGTGCTAG | 4.25
GGTTTTTACTTTCTGAATGCGTGCTAG | 5.23
TTAGATTTCAGACTGGAATAGTGCTAG | -0.228
TTAGATATCAGTCTCGCTTAGTGCTAG | 0.263
TACGGTCTCGGTATCGGGACGTGCTAG | 0.446
GACGGACTAGGGTATCGGGACGTGCTA | -0.903
CCTGGCTTCATGTTGCTCTCCGTGCTA | 0.645
ATGTATATATGTGTATATATGTGCTAG | 1.04
GACGGTATCGACACCGGGGACGTGCTA | -0.35
TCATGAATGTGTCTTAAACTGTGCTAG | 0.375
GACGGTTTCGGTTTCGGGGCGTGCTAG | 14.9
TTAGGTATCAACACTGGGTTAGTGCTA | -0.104
GACGATCTCGGACTGGGGACGTGCTAG | -0.435
TCATTTTCACTTTTCCTACTGTGCTAG | 9.07
GACGGACTAGGTCTCGGGACGTGCTAG | -0.594
TCATACCTGAATATCTTACTGTGCTAG | 0.73
CTAGGTCTCGGTATCGGTTAGTGCTAG | 0.905
TTAGATATCAGTTTCCATTAGTGCTAG | 2.29

Block 4
Target: Sal-like protein 4, full length isoform A (SALL4, Homo sapiens, UniProt Q9UJQ4, residues 1-1053)
Sequence of UniProt Q9UJQ4 (whole entry, looked up): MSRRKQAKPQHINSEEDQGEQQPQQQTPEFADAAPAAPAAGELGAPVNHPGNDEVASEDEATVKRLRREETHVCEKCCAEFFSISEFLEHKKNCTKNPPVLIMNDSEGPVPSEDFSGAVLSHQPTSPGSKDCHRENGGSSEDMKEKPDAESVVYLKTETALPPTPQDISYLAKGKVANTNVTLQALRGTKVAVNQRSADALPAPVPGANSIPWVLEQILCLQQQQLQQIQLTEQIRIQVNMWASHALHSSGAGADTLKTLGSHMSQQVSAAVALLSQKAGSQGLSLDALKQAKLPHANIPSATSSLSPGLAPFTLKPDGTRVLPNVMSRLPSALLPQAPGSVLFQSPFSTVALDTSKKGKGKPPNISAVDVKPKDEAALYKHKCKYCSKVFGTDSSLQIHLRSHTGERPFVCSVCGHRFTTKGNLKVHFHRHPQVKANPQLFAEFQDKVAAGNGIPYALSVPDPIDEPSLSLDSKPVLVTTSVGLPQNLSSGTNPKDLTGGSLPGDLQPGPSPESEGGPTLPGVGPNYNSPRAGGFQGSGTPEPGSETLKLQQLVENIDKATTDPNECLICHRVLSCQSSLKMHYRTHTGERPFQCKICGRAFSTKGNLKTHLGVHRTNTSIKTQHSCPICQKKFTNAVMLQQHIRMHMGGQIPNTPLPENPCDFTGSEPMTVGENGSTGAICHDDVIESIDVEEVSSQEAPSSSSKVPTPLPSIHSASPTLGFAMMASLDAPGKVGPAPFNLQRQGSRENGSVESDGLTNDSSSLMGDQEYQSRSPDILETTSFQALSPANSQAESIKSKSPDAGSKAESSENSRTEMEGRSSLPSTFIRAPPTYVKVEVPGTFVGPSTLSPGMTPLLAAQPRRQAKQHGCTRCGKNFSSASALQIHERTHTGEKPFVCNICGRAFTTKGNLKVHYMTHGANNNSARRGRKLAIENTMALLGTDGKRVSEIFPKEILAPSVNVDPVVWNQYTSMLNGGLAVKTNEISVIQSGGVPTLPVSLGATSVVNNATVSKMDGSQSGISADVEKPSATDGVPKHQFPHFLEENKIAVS
Technique: universal PBM
Form: double-stranded DNA, one strand shown
Matrix: in vitro
Tested at: 600 nM
Setting: 8-mer, flanks averaged, mean of replicates
Direction: higher = stronger binding
Sequence | E-score
TAATCTGA | 0.176
TAGATCGA | 0.0551
CGATTGCC | -0.174
GCCCACAC | -0.2
ATAATGCC | 0.13
ACCAATAG | 0.0754
GGCCGAAA | -0.0201
CGCCATTC | -0.102
AAAATCCT | 0.122
AAAGCTGA | 0.0941
ACCCGGTG | -0.357
AACGAGGT | -0.205
CGAGTTAC | -0.0784
CCACTTCG | -0.142
GCTACGGA | -0.109
GCCGATTA | 0.139

A few entries again (block 1):
Sequence | fluorescence intensity [a.u.]
ATTAAAGAAAAATTAAACGTGATGGGTCTATCGAGCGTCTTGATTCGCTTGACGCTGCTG | 10900
CATACCCAACCTTGGAACGTGGGTGAAGATATTTGTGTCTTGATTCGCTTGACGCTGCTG | 14300
GGCCGCTCAAGGGAGCACGTGACCTCGGCCTCTGGCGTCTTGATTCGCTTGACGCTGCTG | 15200
TAAACCAAGTAAATGACGATGGGAGAAGCAGTACCCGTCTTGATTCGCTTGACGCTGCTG | 3400
CGTCCTAGTGATTGTCACCCCACTTCCATGAGGAAGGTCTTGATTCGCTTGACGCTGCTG | 4630
AGAACACAGTTTCGGCACGTGGAAGGTGTTTGGGACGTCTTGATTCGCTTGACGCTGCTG | 18500
TCAAACTGAGATCCGGTCATGACAATACTGTCAACAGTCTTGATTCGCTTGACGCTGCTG | 3310
AAATTACTAAGTTGCCTTGTGGGTGACGCCGTATGAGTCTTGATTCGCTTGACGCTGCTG | 5530
TCAAAAACGGACATTACTTGCCAGACGCGAATGATAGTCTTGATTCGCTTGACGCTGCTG | 3610
CTAACGAAGGTTTGTCTAGTGGGTGACAAGCCAAGTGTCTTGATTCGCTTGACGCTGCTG | 3720
AACTGTTTCAGAACAAACGTGGTCGTCCCAAGAAGTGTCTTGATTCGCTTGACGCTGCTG | 11800
